Published values from different studies.
Compare with care: the assays were run in different laboratories. “And” joins repeats or separate records; there may be more than shown. ± gives the spread as reported.

Amino acid sequences for entries named in this document (tags omitted). Residues count along the entry.
UniProt Q00960, 27-1482 limits assumed: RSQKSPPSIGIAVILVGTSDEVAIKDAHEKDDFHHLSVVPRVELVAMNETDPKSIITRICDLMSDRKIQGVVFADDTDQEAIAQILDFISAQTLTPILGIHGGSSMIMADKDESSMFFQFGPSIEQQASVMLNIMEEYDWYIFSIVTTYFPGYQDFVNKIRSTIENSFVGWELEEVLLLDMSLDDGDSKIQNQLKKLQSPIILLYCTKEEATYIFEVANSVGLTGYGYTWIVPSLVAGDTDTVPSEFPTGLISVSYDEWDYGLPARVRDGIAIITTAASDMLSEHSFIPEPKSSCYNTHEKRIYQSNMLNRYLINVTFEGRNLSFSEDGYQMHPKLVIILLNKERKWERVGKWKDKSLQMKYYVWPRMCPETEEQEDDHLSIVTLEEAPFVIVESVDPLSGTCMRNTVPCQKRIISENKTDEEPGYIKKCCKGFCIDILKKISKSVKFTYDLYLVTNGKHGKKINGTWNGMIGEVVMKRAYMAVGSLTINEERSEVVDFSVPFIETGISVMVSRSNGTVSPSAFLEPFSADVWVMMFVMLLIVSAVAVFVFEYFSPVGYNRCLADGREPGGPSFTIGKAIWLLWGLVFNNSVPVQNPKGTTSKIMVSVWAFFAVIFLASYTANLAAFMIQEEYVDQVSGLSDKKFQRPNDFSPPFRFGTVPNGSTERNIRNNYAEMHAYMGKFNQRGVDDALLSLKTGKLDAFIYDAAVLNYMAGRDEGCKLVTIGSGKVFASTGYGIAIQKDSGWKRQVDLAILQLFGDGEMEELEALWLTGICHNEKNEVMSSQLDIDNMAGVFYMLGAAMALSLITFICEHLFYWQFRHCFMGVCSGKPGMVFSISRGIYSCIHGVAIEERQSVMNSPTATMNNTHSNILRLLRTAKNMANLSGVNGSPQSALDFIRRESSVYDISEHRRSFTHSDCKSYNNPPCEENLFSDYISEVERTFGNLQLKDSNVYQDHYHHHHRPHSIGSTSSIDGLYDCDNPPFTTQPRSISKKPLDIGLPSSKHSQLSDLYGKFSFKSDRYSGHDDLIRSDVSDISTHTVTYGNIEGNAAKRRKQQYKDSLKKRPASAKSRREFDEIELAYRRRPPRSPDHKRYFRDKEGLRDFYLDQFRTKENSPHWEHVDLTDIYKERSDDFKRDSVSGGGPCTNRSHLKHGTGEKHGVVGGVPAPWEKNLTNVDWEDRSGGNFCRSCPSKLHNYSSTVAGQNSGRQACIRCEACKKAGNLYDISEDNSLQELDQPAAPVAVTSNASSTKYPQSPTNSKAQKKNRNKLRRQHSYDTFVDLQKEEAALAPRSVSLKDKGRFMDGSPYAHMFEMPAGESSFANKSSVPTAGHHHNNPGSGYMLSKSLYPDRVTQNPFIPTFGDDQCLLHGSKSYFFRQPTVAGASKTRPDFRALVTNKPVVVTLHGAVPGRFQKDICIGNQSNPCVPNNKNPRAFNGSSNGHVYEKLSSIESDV
UniProt P48067, whole entry: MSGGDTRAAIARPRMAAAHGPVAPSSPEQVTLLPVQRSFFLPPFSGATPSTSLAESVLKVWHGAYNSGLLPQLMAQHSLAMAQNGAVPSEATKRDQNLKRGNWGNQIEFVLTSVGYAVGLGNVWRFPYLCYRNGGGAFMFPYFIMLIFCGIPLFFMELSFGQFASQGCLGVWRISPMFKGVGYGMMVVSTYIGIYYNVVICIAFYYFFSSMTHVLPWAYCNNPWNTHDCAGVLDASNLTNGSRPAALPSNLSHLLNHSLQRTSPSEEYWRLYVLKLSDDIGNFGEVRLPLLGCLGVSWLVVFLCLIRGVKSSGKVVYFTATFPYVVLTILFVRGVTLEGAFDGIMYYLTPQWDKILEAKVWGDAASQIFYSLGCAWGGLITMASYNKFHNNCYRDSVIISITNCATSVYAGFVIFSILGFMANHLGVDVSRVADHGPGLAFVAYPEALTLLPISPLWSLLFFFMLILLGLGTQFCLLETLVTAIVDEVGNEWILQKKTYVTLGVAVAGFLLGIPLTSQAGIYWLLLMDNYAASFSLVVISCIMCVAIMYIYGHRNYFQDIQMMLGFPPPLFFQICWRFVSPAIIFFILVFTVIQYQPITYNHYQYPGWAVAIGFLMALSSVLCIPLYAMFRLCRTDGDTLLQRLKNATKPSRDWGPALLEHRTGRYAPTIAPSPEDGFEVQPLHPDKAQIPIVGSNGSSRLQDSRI
UniProt O00311, whole entry: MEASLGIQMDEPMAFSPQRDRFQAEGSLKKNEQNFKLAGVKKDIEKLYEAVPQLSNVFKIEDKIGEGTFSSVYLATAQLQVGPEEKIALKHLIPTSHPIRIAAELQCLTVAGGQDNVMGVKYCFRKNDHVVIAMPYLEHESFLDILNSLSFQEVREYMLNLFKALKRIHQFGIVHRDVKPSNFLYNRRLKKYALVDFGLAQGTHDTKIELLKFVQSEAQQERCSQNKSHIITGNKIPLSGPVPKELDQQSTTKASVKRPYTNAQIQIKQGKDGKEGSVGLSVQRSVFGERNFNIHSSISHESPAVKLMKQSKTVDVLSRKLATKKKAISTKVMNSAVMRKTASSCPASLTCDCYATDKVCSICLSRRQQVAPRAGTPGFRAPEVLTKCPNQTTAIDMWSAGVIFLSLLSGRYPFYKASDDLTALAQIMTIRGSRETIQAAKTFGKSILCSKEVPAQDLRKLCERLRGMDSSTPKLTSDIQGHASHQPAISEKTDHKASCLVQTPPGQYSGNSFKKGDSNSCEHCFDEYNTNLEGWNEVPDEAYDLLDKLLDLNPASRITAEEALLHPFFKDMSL
UniProt P07384, whole entry: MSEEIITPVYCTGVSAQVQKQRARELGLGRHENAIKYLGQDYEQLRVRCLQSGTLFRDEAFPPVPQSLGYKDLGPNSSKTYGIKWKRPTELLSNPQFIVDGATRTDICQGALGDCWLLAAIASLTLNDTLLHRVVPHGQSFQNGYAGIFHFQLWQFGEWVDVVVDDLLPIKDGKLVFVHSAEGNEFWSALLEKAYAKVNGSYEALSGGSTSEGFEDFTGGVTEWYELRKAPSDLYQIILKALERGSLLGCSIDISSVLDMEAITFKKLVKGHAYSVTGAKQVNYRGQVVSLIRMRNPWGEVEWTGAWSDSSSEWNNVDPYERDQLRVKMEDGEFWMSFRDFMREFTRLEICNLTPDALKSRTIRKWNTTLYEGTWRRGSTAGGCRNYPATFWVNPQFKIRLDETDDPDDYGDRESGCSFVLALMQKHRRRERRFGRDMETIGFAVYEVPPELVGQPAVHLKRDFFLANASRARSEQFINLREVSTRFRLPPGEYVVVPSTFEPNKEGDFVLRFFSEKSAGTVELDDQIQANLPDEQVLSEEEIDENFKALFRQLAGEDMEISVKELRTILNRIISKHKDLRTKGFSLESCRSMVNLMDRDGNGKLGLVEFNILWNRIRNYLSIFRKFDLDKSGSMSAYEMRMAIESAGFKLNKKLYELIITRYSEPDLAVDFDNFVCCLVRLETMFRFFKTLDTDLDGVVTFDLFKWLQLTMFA
UniProt O00748, 27-559 limits assumed: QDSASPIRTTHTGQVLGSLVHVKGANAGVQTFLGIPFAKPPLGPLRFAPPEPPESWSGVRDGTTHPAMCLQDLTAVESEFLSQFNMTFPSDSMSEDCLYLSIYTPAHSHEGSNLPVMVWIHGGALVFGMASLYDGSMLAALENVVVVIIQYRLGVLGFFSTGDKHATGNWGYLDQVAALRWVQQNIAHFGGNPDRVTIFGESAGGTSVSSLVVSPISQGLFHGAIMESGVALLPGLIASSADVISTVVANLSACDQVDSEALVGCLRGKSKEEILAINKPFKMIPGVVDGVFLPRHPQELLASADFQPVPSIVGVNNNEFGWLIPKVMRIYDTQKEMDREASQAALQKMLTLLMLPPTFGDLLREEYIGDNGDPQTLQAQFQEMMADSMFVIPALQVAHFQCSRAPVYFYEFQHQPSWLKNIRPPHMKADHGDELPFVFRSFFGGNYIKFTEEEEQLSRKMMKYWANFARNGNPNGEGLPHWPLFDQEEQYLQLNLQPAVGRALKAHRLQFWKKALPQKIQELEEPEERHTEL
UniProt P14902, whole entry: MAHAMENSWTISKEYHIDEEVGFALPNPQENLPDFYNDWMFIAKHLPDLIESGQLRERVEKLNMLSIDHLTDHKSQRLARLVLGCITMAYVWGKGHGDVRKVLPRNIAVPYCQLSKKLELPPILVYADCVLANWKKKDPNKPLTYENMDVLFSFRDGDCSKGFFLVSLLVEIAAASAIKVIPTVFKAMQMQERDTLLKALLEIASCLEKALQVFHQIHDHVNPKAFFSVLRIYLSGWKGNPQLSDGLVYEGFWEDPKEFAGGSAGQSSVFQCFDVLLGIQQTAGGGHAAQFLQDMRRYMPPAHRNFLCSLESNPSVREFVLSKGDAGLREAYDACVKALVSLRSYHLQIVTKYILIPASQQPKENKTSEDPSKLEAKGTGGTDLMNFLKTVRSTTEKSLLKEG
UniProt P03372, whole entry: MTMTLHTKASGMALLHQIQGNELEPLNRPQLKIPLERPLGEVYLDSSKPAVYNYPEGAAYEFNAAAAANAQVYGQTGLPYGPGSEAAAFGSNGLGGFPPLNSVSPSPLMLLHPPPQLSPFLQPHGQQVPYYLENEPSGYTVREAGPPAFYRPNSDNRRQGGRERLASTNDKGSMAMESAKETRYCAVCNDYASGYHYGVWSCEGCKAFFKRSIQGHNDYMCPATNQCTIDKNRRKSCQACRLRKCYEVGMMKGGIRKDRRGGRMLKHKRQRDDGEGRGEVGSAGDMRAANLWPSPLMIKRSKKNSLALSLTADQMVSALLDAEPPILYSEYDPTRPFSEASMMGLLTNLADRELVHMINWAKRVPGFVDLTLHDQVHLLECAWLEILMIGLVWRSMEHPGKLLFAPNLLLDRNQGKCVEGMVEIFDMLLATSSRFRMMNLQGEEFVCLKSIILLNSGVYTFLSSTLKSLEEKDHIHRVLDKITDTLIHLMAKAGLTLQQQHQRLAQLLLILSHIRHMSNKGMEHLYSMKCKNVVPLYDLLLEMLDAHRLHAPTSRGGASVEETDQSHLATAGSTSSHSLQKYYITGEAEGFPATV
UniProt P19784, whole entry: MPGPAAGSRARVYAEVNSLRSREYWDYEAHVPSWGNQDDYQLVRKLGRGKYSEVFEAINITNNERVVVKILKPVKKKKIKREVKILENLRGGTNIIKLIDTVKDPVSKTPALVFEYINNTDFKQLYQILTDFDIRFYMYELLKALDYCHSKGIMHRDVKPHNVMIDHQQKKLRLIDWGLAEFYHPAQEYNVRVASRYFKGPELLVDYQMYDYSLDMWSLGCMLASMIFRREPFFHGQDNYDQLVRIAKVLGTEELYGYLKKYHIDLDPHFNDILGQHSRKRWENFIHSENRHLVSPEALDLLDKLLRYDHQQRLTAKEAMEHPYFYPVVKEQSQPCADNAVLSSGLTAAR
UniProt P50613, whole entry: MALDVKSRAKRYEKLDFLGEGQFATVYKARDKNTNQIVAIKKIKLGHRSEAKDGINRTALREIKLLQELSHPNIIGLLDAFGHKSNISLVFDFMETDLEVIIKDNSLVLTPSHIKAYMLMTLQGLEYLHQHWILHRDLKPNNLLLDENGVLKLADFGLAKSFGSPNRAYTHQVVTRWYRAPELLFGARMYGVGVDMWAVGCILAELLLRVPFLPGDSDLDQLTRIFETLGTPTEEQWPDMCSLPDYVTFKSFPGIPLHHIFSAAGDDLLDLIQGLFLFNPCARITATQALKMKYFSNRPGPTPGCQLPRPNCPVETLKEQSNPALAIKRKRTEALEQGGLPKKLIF
UniProt F7BWZ9, 18-604 limits assumed: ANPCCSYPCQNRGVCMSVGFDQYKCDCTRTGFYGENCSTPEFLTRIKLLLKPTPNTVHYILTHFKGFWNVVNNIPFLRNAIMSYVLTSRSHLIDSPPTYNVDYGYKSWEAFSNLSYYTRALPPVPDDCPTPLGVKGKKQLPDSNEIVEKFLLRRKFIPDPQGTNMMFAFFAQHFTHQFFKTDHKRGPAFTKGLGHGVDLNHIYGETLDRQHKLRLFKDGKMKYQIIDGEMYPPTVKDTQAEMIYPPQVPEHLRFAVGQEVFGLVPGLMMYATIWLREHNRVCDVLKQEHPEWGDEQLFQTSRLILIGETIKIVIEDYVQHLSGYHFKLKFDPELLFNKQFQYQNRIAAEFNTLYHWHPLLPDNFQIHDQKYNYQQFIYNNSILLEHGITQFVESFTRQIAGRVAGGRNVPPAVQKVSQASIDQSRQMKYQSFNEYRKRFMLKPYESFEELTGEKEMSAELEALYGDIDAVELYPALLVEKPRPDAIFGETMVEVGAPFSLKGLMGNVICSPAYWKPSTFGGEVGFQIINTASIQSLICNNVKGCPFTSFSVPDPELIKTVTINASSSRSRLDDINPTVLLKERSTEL
UniProt Q9NV35, whole entry: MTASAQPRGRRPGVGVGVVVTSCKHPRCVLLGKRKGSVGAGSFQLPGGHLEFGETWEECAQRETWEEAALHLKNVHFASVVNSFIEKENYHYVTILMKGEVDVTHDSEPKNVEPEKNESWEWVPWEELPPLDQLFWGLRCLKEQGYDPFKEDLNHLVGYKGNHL

| SMILES | target | assay | system | setting | IC50 |
| --- | --- | --- | --- | --- | --- |
| CCC(=O)Nc1ccc(-c2csc(NC(=O)c3ccc(F)c(OC)c3)n2)cn1 | Scavenger receptor class B member 1 (Mus musculus, UniProt Q61009) | DiI-HDL uptake, inhibitor | mouse cells | added: DiI-HDL | 200 nM |
| CCCCN(CCc1ccc(Cl)c(Cl)c1)C[C@H](O)COc1ccc(NS(C)(=O)=O)cc1 | Glutamate NMDA receptor; Grin1/Grin2b (Grin1/Grin2b, Rattus norvegicus, UniProt P35439+Q00960) | whole-cell voltage clamp | HEK293 cells | pH 6.9 | 40 nM |
| Cn1cnc(S(=O)(=O)N2C[C@@H]3[C@H](C2)[C@@]3(CNC(=O)c2ccccc2Cl)CC2CC2)c1 (relative stereo) | Sodium- and chloride-dependent glycine transporter 1 (SLC6A9, Homo sapiens, UniProt P48067) | glycine uptake, inhibitor, [14C]glycine uptake | cells expressing target |  | 19 nM |
| O=C(c1ccccc1)c1ccc2[nH]c3ncccc3c2c1 | ALK tyrosine kinase receptor (ALK, Homo sapiens, UniProt Q9UM73) | ELISA |  |  | 42000 nM |
| CC[C@H](N)c1nc2cc(-c3ccnc(F)c3)sc2c(=O)[nH]1 | Cell division cycle 7-related protein kinase (CDC7, Homo sapiens, UniProt O00311) | enzyme activity, inhibitor |  |  | 126 ± 2.51 nM |
| Fc1cnccc1-c1ccc(C2(c3ccc(Cl)cc3)CCNCC2)cc1 | Serine/threonine-protein kinase LATS1 (LATS1, Homo sapiens, UniProt O95835) | kinase activity, inhibitor, radiometric HotSpot |  | added: ATP 10 µM | 619 nM |
| O=C(OC(C(F)(F)F)C(F)(F)F)N1Cc2ccc(OCC3CC3)cc2C1 | Monoacylglycerol lipase ABHD6 (ABHD6, Homo sapiens, UniProt Q9BV23) | inhibitor, fluorescence |  |  | 4.1 nM and 4 nM |
| O=C(NC1CC1)C(=O)[C@H](Cc1ccccc1)NC(=O)[C@H]1CCC(=O)N1Cc1ccccc1 | Calpain-1 catalytic subunit (CAPN1, Homo sapiens, UniProt P07384) | enzyme activity, inhibitor |  |  | 520 ± 100 nM |
| COc1cc2c(cc1OC)C(=O)C(=Cc1ccccc1OC(=O)N(C)C)C2 | Cocaine esterase (CES2, Homo sapiens, UniProt O00748) | inhibitor |  | 33 min preincubation, added: fluorescein diacetate | 1.74 ± 0.1 nM |
| COc1ccc2[nH]cc(CCc3ccccc3)c2c1 | Indoleamine 2,3-dioxygenase 1 (IDO1, Homo sapiens, UniProt P14902) | enzyme activity, inhibitor |  |  | 5400 nM |
| C[C@H](Nc1nc(N[C@@H](C)C2CC2)nc(-c2cccc(C(F)(F)F)n2)n1)C1CC1 | Isocitrate dehydrogenase [NADP] cytoplasmic (IDH1, Homo sapiens, UniProt O75874, R132H) | enzyme activity, inhibitor |  | mutant heterodimer reverse reaction | 14 nM |
| COc1cccc(Nc2nc(-c3sc(N)nc3C)cs2)c1 | Protein-lysine 6-oxidase (Homo sapiens, UniProt P28300) | LOX activity, inhibitor | MDA-MB-231 |  | > 10000 nM |
| COc1ccc2nc3ccc(OC)cc3c(SCCCN(C)C)c2c1 | Dual specificity tyrosine-phosphorylation-regulated kinase 2 (DYRK2, Homo sapiens, UniProt Q92630) | inhibitor |  | added: Woodtide peptide | 230 nM |
| Cc1ccccc1SCC(=O)Nc1ccc2nc(SCC(=O)NCC(C)C)sc2c1 | Estrogen receptor (ESR1, Homo sapiens, UniProt P03372) | reporter gene, antagonist | HEC-1 transfected ERα luciferase reporter |  | > 50000 nM |
| CC(=O)Nc1cc(Nc2cc(NC3CC3)n3ncc(C#N)c3n2)ccc1N(C)Cc1ccccc1 | Casein kinase II subunit alpha' (CSNK2A2, Homo sapiens, UniProt P19784) | target engagement, NanoBRET | HEK293 |  | 130 nM |
| CN1CC[C@H](c2c(O)cc(O)c3c(=O)cc(-c4ccccc4F)oc23)[C@H](O)C1 | Cyclin-dependent kinase 7 (CDK7, Homo sapiens, UniProt P50613) |  |  | ATP at Km | > 10000 nM |
| COc1nc(-c2ccccc2)n(-c2ccc(C#N)cc2)n1 | Prostaglandin G/H synthase 2 (Macaca mulatta, UniProt F7BWZ9) | PGE2 production, inhibitor, enzyme immunoassay | monkey whole blood |  | 200 ± 45 nM |
| CC(=NNC(=N)N)c1nnn(-c2ccc(C#CC3(O)CCCCC3)cc2)c1C | DNA gyrase subunit B (gyrB, Escherichia coli, UniProt P0AES6) | DNA supercoiling, inhibitor |  | free compound | 29.5 ± 4.1 µg/mL |
| O=c1[nH]c2ccc(S(=O)(=O)N3CCN(C4CCCCC4)CC3)cc2o1 | Nucleotide triphosphate diphosphatase NUDT15 (NUDT15, Homo sapiens, UniProt Q9NV35) | enzyme activity, inhibitor, malachite green |  | added: dGTP | 9100 nM |

Excerpt of the above:
| SMILES | target | assay | system | setting | IC50 |
| --- | --- | --- | --- | --- | --- |
| COc1ccc2nc3ccc(OC)cc3c(SCCCN(C)C)c2c1 | Dual specificity tyrosine-phosphorylation-regulated kinase 2 (DYRK2, Homo sapiens, UniProt Q92630) | inhibitor |  | added: Woodtide peptide | 230 nM |
